Experimental data of several laboratories.
Each numbered part is a random draw from the data of one study; scales do not carry over between parts.

Study 1 — method: protein-binding microarray; molecule type: double-stranded DNA, one strand shown; matrix: in vitro; tested at: 2200 nM top; setting: 60-bp whole probe; with: salmon DNA 0.4 mg/ml; reference: random background probes; reading: higher = stronger binding
Target: Interferon regulatory factor 7, full length, phosphomimetic (IRF7, Homo sapiens, UniProt Q92985, residues 1-503, S471D/S472D/S475D/S476D/S477D/S483D/S484D/S487D)
Sequence of UniProt Q92985 (whole entry, unmodified, looked up): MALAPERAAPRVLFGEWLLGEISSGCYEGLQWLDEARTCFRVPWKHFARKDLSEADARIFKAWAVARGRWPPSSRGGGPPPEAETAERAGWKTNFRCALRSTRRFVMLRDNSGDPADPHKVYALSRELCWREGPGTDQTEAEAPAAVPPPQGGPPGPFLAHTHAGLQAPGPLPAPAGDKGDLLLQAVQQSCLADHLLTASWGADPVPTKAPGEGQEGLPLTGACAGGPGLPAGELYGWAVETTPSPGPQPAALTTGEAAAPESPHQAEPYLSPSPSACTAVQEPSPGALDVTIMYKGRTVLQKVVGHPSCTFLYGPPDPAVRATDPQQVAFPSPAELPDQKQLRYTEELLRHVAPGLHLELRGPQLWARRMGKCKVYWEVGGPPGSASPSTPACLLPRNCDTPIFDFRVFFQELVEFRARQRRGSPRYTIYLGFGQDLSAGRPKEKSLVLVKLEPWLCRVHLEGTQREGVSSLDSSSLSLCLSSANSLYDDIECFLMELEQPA
Shared flanks, not repeated: GCCTAGCAC … GTGCTAGGTCTTGATTCGCTTGACGCTGCTG
Oligonucleotide	fitted relative affinity
CCAGAGTCCTGTTTGATAAT	1.15 z-score
TTAGGTTTCTGTCTCGGTTA	2.53 z-score
TCACTTCTGCCTGTCCAACT	2.13 z-score
GCCATTGTGGATCTTGCAGA	0.29 z-score
TCACCTCTTTCACTGGTACT	2.25 z-score
GATGGTTTCCTTATCCTGAC	2.71 z-score

Study 2 — method: protein binding microarray; molecule type: double-stranded DNA, one strand shown; matrix: in vitro; tested at: not given; reference: not given; reading: higher = stronger binding
Target: Histone acetyltransferase KAT6A, both winged helices, GST fusion (KAT6A, Homo sapiens, UniProt Q92794, residues 1-181)
Setting: 8-mer, flanks averaged, mean of 2 arrays, mostly near background
Target sequence (chain): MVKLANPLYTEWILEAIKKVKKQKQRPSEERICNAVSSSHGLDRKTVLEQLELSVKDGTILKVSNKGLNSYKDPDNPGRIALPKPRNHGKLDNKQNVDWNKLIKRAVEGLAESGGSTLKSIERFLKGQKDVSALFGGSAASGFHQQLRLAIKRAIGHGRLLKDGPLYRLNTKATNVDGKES
Oligonucleotide	E-score
CGCCATTA	0.12
TTAGTGAA	-0.101
GAGATGGC	-0.0868
AGAGAGAT	-0.181

Study 3 — method: RNA Bind-n-Seq; molecule type: RNA; matrix: in vitro; tested at: 365 nM; reference: no-protein control; reading: higher = stronger binding
Target: RNA binding protein fox-1 homolog 2, RRM domain, GST-SBP tag (RBFOX2, Homo sapiens, UniProt O43251-10, residues 100-194)
Setting: natural RNA segment, single round, ends assumed
Shared flanks, not repeated: GGGAGUUCUACAGUCCGACGAUC … UGGAAUUCUCGGGUGCCAA
Residues (chain): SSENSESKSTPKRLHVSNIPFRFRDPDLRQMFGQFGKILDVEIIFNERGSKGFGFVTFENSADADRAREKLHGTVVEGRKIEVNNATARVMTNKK
Oligonucleotide	RBNS enrichment (R)
CUGCCUGUCCUCUGGUUAGGCCCCUCCCUCUCCACUAGUGGUGAAUGCAUGUGUCUGUCUGAUCAGCAUCACUGCACACGGAGGUCUAGUGAGCCUCUUGCUAAGUGUCA	1.53
GUUUUAAAUUUAAUCUUAUUUUUAUAUAAAAUGAUUGCCAGACGUACUAUAUUAAGCUUGAAGAAGCAGAAGAUCCCUGUUAAUGUGUAUGGCCCAGGCCAAGAGCUGUC	0.844
AGCUGAUGUGAAUCCAUCCAGGGCCUAGGUAGAUUGGUAAGUCAGGAAACAGCCCAUGGGGUUCAGCUCUGCAUCCUCCUCUUUAAGUGAAUUAAAGUGGUUUUCCCAGA	0.301
ACUUUUUUCAAAGGCAAAUUUAAACUAUUUAAGAAAUAGCUCCUAAUACUUGGGAUCUUGUUUAGAGAAUCCACUUUCUGGAAGUUCUCAGCAUAAUUAGUGUUGAGAGU	0.481
UUGCUUUGACCUCCAGCAAGGCAGGGGCAUGGAGGGACAAGGCUGCUGCUAUCAGGACCCAUUCUGGAGCCCCAUUUCUAACCUAUGAGGCCCUGCCAGCUGUCACUCAG	0.387
CAACCUAAAAUAUAUUUUCCAAGCUAUAUAUAAUAAUGAAAAAUAAAAACAUUACAUUUAUUUAUCCAGAAAACUGUGAUUUUAGGAUUACCUAACAUUGCUGGUAAAUA	0.512
AUAUUUAAAACCCACAACUAAAACACAUCUGCAUAAUAGUGUUUGUUUGUUGAGAGGAUUUCCUGAGACUGGUUUGGGUCUCCCUGCAUGACAGUCCCCCAGAAACUUGG	49.1

Further values, each from its own experiment
Substance	target	test	system	conditions	how to read	quantity	value
PhoQ, residues 284 288 289 292 302 303 TTSMTC	PhoP, residues 12 14 15 18 19 HLGGL (Escherichia coli, UniProt P23836)	Sort-seq, item: YFP reporter	E. coli	PhoQ-PhoP variant library, with: 10 µM Mg2+	reference: high Mg2+ state, higher = stronger signaling	fold induction	2.85

Excerpt of the above (study 1):
Oligonucleotide	fitted relative affinity
TTAGGTTTCTGTCTCGGTTA	2.53 z-score
